Measured values of several laboratories.
Parts stem from different laboratories: compare values within a part only.

Study 1
Target: Histone acetyltransferase KAT6A, winged helix 2, GST fusion (KAT6A, Homo sapiens, UniProt Q92794, residues 85-181)
Method: protein binding microarray
Molecule type: double-stranded DNA, one strand shown
Matrix: in vitro
Tested at: not given
Notes: 8-mer, flanks averaged, mean of 2 arrays, mostly near background
Baseline: not given
Reading: higher = stronger binding
Residues (chain): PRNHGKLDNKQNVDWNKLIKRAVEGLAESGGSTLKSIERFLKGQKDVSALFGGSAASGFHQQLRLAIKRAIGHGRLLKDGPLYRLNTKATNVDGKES
For `AGCAAAAC`, the E-score was 0.061.
`CAAAATTC` has an E-score of 0.187.
For `GTGGCAAC`, the E-score was 0.111.
The E-score of `CTACCGCC` is reported as 0.123.
With `CTGTCCAC` the E-score was 0.068.
For `CGGCCTGC`, the E-score was 0.128.

Study 2
Target: RING finger protein unkempt homolog, zinc fingers 1-6, GST-SBP tag (UNK, Homo sapiens, UniProt Q9C0B0, residues 30-357)
Method: RNA Bind-n-Seq
Molecule type: RNA
Matrix: in vitro
Tested at: not given
Notes: RNA with constant flanks, human and mouse sites, ends assumed
Baseline: input RNA pool
Reading: higher = stronger binding
Construct (chain): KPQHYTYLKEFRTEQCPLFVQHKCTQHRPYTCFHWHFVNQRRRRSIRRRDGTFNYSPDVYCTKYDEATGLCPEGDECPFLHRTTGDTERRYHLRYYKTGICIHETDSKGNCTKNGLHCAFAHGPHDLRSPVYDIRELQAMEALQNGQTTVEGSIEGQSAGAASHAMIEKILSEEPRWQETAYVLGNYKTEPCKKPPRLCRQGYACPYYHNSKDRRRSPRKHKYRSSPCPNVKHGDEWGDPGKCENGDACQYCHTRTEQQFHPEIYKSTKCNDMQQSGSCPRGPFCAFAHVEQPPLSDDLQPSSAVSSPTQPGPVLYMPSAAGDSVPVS
`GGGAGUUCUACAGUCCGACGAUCGCCAGCCGGGAUGGAUAUCCAAUUAUUUUAUAUGAAAUUCCUUCUGGACGUUUCAUGAGAGAAUUGUGUGGCCACCUCAAUAUCAUUUAUGAUCUUUCCUGGUCAAAAGAUGAUCACUACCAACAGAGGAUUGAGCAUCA` has a bound/input enrichment of 0.161 ratio.
`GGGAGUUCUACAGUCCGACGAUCAGGGACCUGAGCAUCGAUCCCAGGCAGCUGGCUCCGGCCCCGGGGGGCACCCACGUGGUGGCCCUAGUGCCUGCGCGCUGGCUGGCCAGCCUCCGCGAUCGCCGGCUGCCCCUGGGACCCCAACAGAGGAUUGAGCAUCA` gave a bound/input enrichment of 0.0984 ratio.
With `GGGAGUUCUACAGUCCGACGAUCGCUGUGCUGGGGAACCAGAUUUUUAUUAUGGGGGGUGAUACAGAAUUCUCUGCCUGCUCUGCUUAUAAAUUCAACAGUGAGACUUACCAGUGGACCAAGGUGGGAGAUGUGACAGCAAAGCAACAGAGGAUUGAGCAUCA` the bound/input enrichment was 0.683 ratio.
`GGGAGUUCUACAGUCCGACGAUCCAGUCUUCUAUGUCUAUUGAGUUCGGCCAGGAAUCCCCUGAGCAUUCUCUUGCUAUGGACUUUAGUCGGCAGUCUCCAGAUCACCCUACUCUGGGUGCCAGUGUGCUUCAUAUCACUGAACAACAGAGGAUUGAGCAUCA` has a bound/input enrichment of 0.251 ratio.
With `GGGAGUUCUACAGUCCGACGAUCCUCCGAGCUGCUAAUAUUCUUGUAGGAGAAAAUCUUAUAUGCAAAAUAGCAGAUUUUGGCUUAGCAAGAUUAAUUGAAGACAAUGAAUACACGGCAAGACAAGGUGCAAAAUUUCCAAUCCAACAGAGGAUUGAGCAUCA` the bound/input enrichment was 0.146 ratio.
For `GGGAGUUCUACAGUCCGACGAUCAUUUUUGACCUGUACAGAAGAAGAUGGGGUGCUGGUUUACCACCAUGCCCAGGAUGUCAUUUUAGAAGUCAUUUACACUGACCCUGUGGAUCUUUCUGUGGGCACCGUGGCAGAAAUCACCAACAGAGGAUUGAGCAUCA`, the bound/input enrichment was 0.283 ratio.

Study 3
Target: Interferon regulatory factor 7, full length, phosphomimetic (IRF7, Homo sapiens, UniProt Q92985, residues 1-503, S101K/S471D/S472D/S475D/S476D/S477D/S483D/S484D/S487D)
Method: protein-binding microarray
Molecule type: double-stranded DNA, one strand shown
Matrix: in vitro
Tested at: 250 nM
Notes: 60-bp whole probe
Together with: salmon DNA 0.4 mg/ml
Baseline: random background probes
Reading: higher = stronger binding
Shared flanks, not repeated: GCCTAGCAC … GTCTTGATTCGCTTGACGCTGCTG
Construct (chain): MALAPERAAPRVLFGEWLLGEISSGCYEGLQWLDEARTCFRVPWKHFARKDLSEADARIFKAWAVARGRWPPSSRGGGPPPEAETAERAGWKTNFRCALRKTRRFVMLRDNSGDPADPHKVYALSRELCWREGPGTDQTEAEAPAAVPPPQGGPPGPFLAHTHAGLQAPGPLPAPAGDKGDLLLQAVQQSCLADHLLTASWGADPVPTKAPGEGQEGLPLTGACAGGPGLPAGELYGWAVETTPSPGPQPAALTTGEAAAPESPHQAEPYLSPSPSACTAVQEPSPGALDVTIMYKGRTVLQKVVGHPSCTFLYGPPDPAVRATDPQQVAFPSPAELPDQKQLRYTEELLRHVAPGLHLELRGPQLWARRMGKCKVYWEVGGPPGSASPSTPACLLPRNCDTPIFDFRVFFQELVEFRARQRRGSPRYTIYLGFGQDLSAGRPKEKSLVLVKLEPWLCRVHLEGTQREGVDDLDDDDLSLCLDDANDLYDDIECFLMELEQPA
The log fluorescence of `CACCGTCTTATTAAAAAACAGTGCTAG` is reported as 0.542 z-score.
`TTAGCTCTCCTTCTCCTTTAGTGCTAG` has a log fluorescence of -0.28 z-score.
The log fluorescence of `GACGGACTGGGGACTGGGTACGTGCTA` is reported as -0.544 z-score.
`TTCGAACTGAGTCTCGATTAGTGCTAG` gave a log fluorescence of 1.13 z-score.
The log fluorescence of `GACGATTTCGTGTATCGAGACGTGCTA` is reported as 0.392 z-score.
The log fluorescence of `TCACTGATCCATTTTGGACTGTGCTAG` is reported as -0.304 z-score.
`TTTGGTATCGGGTTTCGGTTAGTGCTA` gave a log fluorescence of 7.63 z-score.

Single results of other studies
`PhoQ, residues 284 288 289 292 302 303 TASMAF` has a fold induction of 18.1 (PhoP, residues 12 14 15 18 19 LYHSL (Escherichia coli, UniProt P23836); Sort-seq, measured: YFP reporter; E. coli; PhoQ-PhoP variant library, together with: 10 µM Mg2+; baseline: high Mg2+ state, higher = stronger signaling).
